Measurements gathered from unrelated publications.
Each numbered part is a random draw from the data of one study; scales do not carry over between parts.

Study 1
Target: Interferon regulatory factor 5, full length, phosphomimetic (IRF5, Homo sapiens, UniProt Q13568-2, residues 1-514, K96S/S451D/S453D/S456D/S462D)
Technique: protein-binding microarray
Form: double-stranded DNA, one strand shown
Matrix: in vitro
Tested at: 250 nM
Setting: 60-bp whole probe
Added: salmon DNA 0.4 mg/ml
Relative to: random background probes
Direction: higher = stronger binding
Constant ends, left off below: GCCTAGCAC … GTCTTGATTCGCTTGACGCTGCTG
Strand	log fluorescence [z-score]
GACGGTTTCGTTCTCCTGACGTGCTAG	6.22
GACGATTTCCGACTGGAGACGTGCTAG	0.362
TTAGACCTGGGGACTGGATTAGTGCTA	-0.617
TTCACTTTAACTTATTCTCTAGTGCTA	1.34
CCAAGTCTTGTTTTACAATTGTGCTAG	0.183
ACCGTTGTAGTTTTCATTATGTGCTAG	1.82
TTAGGTCTCCTTTTCCTTTCGTGCTAG	1.39
TTAGGTCTCCTACTGCTTGAGTGCTAG	-0.385
TCATTTTGCCCTATTTAACTGTGCTAG	0.798
GACGGTATCCTCCTCCTGACGTGCTAG	-0.205
GACGGACTGCTACTGATGACGTGCTAG	-0.402
TTAGAACTGAGTATCGATCAGTGCTAG	5.97
GCAGGGTATAGGCATTCCCTGTGCTAG	-0.805
GCCGGACTGGGTATCGGGACGTGCTAG	0.337
TTAGGTATCCTTATCTTTTAGTGCTAG	0.541
TTAGATATCAGTGTCGATTAGTGCTAG	1.51
GACTGACTGCTTCTCCTGACGTGCTAG	-0.21
GGTGCTCTGCAGCTCAGGCAGTGCTAG	-0.645
TTAGGTCTCGGTTTAGGTTAGTGCTAG	1.23
GACGGCTTCCTTCTCCTGACGTGCTAG	-0.333
GACGAACTGGCGTATCGAGACGTGCTA	0.279

Study 2
Target: RNA binding protein fox-1 homolog 2, RRM domain, GST-SBP tag (RBFOX2, Homo sapiens, UniProt O43251-10, residues 100-194)
Technique: RNA Bind-n-Seq
Form: RNA
Matrix: in vitro
Tested at: 365 nM
Setting: natural RNA segment, single round, ends assumed
Relative to: no-protein control
Direction: higher = stronger binding
Construct (chain): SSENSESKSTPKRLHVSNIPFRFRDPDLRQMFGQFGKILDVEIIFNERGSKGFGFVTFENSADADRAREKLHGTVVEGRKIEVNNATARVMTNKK
Strand	RBNS enrichment (R)
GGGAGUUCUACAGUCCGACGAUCUUUUGAUCUCUUUGGGGAAUCUGGAGUACAGGCCUCUCCGCCCCUGACCACCGAAACGUGCAGGCAUUCUCACUCACACUGGGCAGCCCGCUGUCGGGUCUCUCUAGGCCUGGAAUUCUCGGGUGCCAA	0.244
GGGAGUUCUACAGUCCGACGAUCUUACAGUCUUAUUUAACCAGGGGUCCUAACCACUAACAUUGUGACUUUGCUUUGAGACCUUUCCUCUCCUGGGUACUGAGGUGCUAUGAAGCCAACUGACAAAGAUGCAUUGGAAUUCUCGGGUGCCAA	0.52
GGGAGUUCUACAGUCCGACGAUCUGUUUAUCCUCGGCUGCUGUCUUCCCAGCAGGCCCCAGGCAAGGAGGCUUCCCAUUGCUGCUGCUACCGGUUCUCCACAGAUCCCUGUGGUCCGCCAUCGCCGACACACAUGGAAUUCUCGGGUGCCAA	0.224
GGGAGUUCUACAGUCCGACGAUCUCCCCACUGUAGGGGGAAGGAAGGGAGUGACUUCAGUGGGUUCUCUACCAAAAACAGGGCUAAGGGCUGGAGAUGGAUCCCCGUUCCUUGUCCAGCCUCCUGCUACCGCUUGGAAUUCUCGGGUGCCAA	0.244
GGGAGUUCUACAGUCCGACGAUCAGAGCUGUAUUAAGCCACUUAAAAUGUUCACUUUUGACAAAGGCAAGCACUUGUGGGUUUUUGUUUUGUUUUUCAUUCAGUCUUACGAAUACUUUUGCCCUUUGAUUAAAUGGAAUUCUCGGGUGCCAA	0.585
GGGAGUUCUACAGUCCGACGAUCCUAUGGUUCUCAUUUUCACCCUCAGCUUGGCAGUUCAUUUUCUUUUCACGAGUUUGCCUAGUGCUCUGGUUUACACUAUAUGACAACUAUACUUCAGCUGUUCUUUGCCUUGGAAUUCUCGGGUGCCAA	0.298
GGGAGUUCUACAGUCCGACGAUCGAUCAGCGGUUCUUUUUGCAGCAAAGCCUGCAUCUGUGUUGACUUGCAAGAUUUUGCGUUUAUUCAGGCAAAAACUGGUCAAAAUGGUUACUACAUGAUUUGUUCCCAGAUGGAAUUCUCGGGUGCCAA	0.304
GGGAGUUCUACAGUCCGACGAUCGGGUACUGUGUGUGCACAUAGACACACUUACGUGGAAUUACAGUUGUGGGUUUAUCCAAGAUGAGGAAGAUUUCACCUGCUGUUUAAUAGACUUGGGGCCAUGUGCCUCCUGGAAUUCUCGGGUGCCAA	0.401
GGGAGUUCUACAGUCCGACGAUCCAUCCCGGUCUCCAGAGACCCAGCUUCUGAGAGACAGGGUGUGGGCAUCUCCAUGCCCCUAUAAAGCGUGCCUGGGGCUUGUCUGGGGCUGGGGAGGAAUAAACCAUGUAUGGAAUUCUCGGGUGCCAA	0.902
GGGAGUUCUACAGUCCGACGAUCUGGCUCAGCACAUUGACAUCACUAACUAGGGUUGGGAUAGCUUCCUACCCAGAUGACCAAAAAGCCAGUGGAAACAGUUAAGCCCCUCCAUAUCAGGCUUACCAAGAAUAUGGAAUUCUCGGGUGCCAA	0.335
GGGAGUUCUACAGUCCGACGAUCCUGGCCUCUGACUGCAUUGCUUUAGGUCGUAUUCAAACUCUCUUAAACAUUGUGCCAAGAAACGAUUUGUGGGAUUCAUGUCCCGAAACCAUUAAAUCUAUUGUUUGGAAUGGAAUUCUCGGGUGCCAA	0.714
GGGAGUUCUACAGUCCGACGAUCAACUUGCUGUUUCCAAAAAGAAGGUGCAAUAUCAUAUACAUCAUUAGCAAUAUUAGCAUUUCAAUCAGCGAUCUGAGUGUUAGUUGUUUUUCCUUUACAUUUCUAGUAGUUGGAAUUCUCGGGUGCCAA	0.466

Study 3
Target: Hepatocyte nuclear factor 3-alpha (Foxa1, Mus musculus, UniProt P35582, residues 1-468, full length assumed)
UniProt P35582, sequence (whole entry, looked up): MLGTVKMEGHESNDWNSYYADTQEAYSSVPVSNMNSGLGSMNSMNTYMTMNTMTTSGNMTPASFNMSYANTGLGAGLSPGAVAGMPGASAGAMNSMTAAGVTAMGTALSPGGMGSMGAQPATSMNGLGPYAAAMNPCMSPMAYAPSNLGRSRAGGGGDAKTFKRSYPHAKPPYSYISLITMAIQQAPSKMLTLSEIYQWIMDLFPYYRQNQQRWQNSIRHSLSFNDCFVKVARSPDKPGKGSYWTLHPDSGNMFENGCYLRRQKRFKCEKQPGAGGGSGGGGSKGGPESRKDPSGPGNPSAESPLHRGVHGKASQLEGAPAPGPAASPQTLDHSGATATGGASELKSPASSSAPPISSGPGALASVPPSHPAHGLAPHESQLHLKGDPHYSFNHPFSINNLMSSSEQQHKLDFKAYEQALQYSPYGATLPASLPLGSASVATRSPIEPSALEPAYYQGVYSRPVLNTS
Technique: EMSA with sequencing
Form: double-stranded DNA, one strand shown
Matrix: in vitro
Tested at: 10 and 20 nM
Setting: whole designed probe, mean of two concentrations, ends assumed
Relative to: negative control set to 0
Direction: higher = stronger binding
Strand	normalised bound fraction [ratio]
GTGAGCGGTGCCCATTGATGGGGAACATCTTCCCCCTCTTCCTTGCCCCACCAGCTCACCTTCCCGGGTTATTTGCAGATAGGAAAATAAATAAAGCCGGCATTCGTTAACCCTCTTCTGGCGCAAACTGCTGTGCGTCAGTTTTGAATCATGGTCCTTTGGCGACGCCAGGCTCCGGGAGAGCAAAGCACCGTGTCAGGGCCATGATCCGGGGTGGCCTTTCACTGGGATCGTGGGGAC	0.324
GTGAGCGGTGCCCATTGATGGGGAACATCCACGAACCTGGCCCTGTCTGGTAACCACAGTGAACCATCGCAAGATACAGCACTATGTGTAATGACTCACCCCAGTTGGGCTGGAACCAGTGTTGACACATCACATCCTCAGGGACACGGAAGTGTACTTGTTTTTGGAGAGGGACTAGACCTTCATCCTTGAGGTGAAGAAGATTTTCTCTCCAGGGTGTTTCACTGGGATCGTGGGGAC	0.119
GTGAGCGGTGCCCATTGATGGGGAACATTCAACTTAGACATCACAGGCAAAAAATAGAATGGGAAATGTAAAAAGTTTACCAGGTGTAATTGAATGAAGGACAAGTTTCCTAATCTCTTGTTTACTCTGTTGGAGATATATTTAGGAGAATTTCCTAGTCTGCTTTATAACTTCCTCTTTGGCCACTATCTTGACCTGGAATAATTACAAAAAGAATGTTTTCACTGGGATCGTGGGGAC	0.325
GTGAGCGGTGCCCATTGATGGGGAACATCTTCCCCCTCTTCCTTGCCCCACCAGCTCACCTTCCCGGGTTATTTGCACAAAGGAAAATAAATAAAGCCGGCATTCGTTAACCCTCTTCACGCGCATACTGCTGTTTGCTCTGCATCTAACATGGTCCTTACGCGACGCCAGGCTCCGGGAGAGCAAAGCACCGTGTCAGGCGCATGATCCGGGCTCGCCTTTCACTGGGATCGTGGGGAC	0.385
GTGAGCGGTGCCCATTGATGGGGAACAATTTCACTAATTACTGATTCTATGAATAGGATAATGATTATGAAGAAAAATGCAAAAGTACAATCTCTTGAGCTGAAGAAAAAAATACAGAGTAAACATGCTCCTCATAAGAATACTGTCTAAATCGAATGACCAACAAGACTGATTTGATGTTTGGTTGCAGAGATACTAGTCAAGTTTATTTTAATTCTTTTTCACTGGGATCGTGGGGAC	0.257
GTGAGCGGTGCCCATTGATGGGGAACTCCTGCTTCTGTTGGCTGTTTCTTCTCTTTGGAGGGGGTCCCATTTCCCCACCTCTTTGCATACGCTGTAATGTTTTGTTGGATACTGCATGTTGTTTATTTAGAGCAGCAGTTCAGACTGAAGTAGGAGCTGTCATCCTGGAGGGGCTCCCTGCCTGTGTTGGGCATGTGGGGGGCTGCTCAGCCAGATCCATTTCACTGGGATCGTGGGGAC	0.418
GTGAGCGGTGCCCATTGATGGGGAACATCTTCCCCCTCTTCCTTGCCCCACCAGCTCACCTTCCCGGGTTATTTGCAGATAGGAAAATAAATAAAGCCGGCATTCGTTAACCCTCTTCTGGCGCAAACTGCCAGAGCAAACAGATCTAACATGGTCCTTTGGCGACGCCAGGCTCCGGGAGAGCAAAGCACCGTGTCAGGGCCATGATCCGGGGTGGCCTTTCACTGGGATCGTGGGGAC	0.396
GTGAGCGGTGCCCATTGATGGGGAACTCATTAATTAAACTGACATTTAAATTTAATTTGGAAGTAATGCAATTGATGGTAGATTACTTTAAATTGAGTACAGTATTCATAGGTATATTCTTGTTTACTTAAAATATAAAACATAGTAATATACAGGAGAGAAAAAAGAAATTTTTTTTAAGCTTATAAAAGGATTTATGGGCTGGGCGCAGTGGCTCACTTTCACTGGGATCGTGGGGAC	0.39

Study 4
Target: Histone acetyltransferase KAT6A, both winged helices, GST fusion (KAT6A, Homo sapiens, UniProt Q92794, residues 1-181)
Technique: protein binding microarray
Form: double-stranded DNA, one strand shown
Matrix: in vitro
Tested at: not given
Setting: 8-mer, flanks averaged, mean of 2 arrays, mostly near background
Relative to: not given
Direction: higher = stronger binding
Residues (chain): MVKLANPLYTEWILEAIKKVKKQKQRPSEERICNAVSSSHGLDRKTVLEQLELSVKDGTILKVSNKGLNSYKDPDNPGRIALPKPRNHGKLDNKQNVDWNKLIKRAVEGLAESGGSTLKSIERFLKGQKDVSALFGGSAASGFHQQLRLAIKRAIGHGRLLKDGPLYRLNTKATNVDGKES
Strand	E-score
GATCTTCA	-0.013
GTGCTCAA	-0.0363
GAAGCCTC	-0.116
AAAGCTGG	-0.162
AAGTTTGT	-0.0452
GCCTTACA	-0.187
GCCGAGAC	0.164
GCGTGTAA	0.103
CGCGTCAG	0.182
GGCGGGAA	0.229
CCTTACAA	-0.108
CCCTGGGC	-0.102
ATTGGGTA	-0.187
CGCCGTTA	0.295
ATTGCATG	-0.121
GTGCAGCA	-0.000955
CATGCAGG	-0.246
CCCCTTTA	-0.199
TAGGGCGA	-0.1
ACCTTCCT	-0.0703
GGTGACTA	-0.0772
AGCTCAGA	-0.103
CGGAACAC	0.189

Repeated from above (study 1):
Strand	log fluorescence [z-score]
CCAAGTCTTGTTTTACAATTGTGCTAG	0.183
ACCGTTGTAGTTTTCATTATGTGCTAG	1.82
TTAGGTCTCCTTTTCCTTTCGTGCTAG	1.39
TTAGGTCTCCTACTGCTTGAGTGCTAG	-0.385
TCATTTTGCCCTATTTAACTGTGCTAG	0.798
GACGGTATCCTCCTCCTGACGTGCTAG	-0.205
GACGGACTGCTACTGATGACGTGCTAG	-0.402
TTAGAACTGAGTATCGATCAGTGCTAG	5.97
GCAGGGTATAGGCATTCCCTGTGCTAG	-0.805
